Experimental data pooled from the literature.
Compare with care: the assays were run in different laboratories. Values joined by “and” are separate records of one study, mostly repeats; a detail may differ. Numbers after ± are the reported error.

Compound	tested on	test	test system	conditions	scale	quantity	result
CCc1cc(C(=O)NC)c2nccc(N3CCc4c(cc(Cn5ccnc5)cc4-c4cn(C)nc4C(F)(F)F)C3=O)c2c1			Sprague Dawley rats	oral, 100 mg/kg twice daily, 7 days	relative to: vehicle	serum ALP change	-1%
Cc1ccc(Sc2ccccc2N2CCNCC2)c(C)c1		item: ALT increased	healthy adult women	oral, 10 mg daily, 12 days		participants with TEAE	0%
Cc1c2oc3c(C)ccc(C(=O)N[C@@H]4C(=O)N[C@H](C(C)C)C(=O)N5CCC[C@H]5C(=O)N(C)CC(=O)N(C)[C@@H](C(C)C)C(=O)O[C@@H]4C)c3nc-2c(C(=O)N[C@@H]2C(=O)N[C@H](C(C)C)C(=O)N3CCC[C@H]3C(=O)N(C)CC(=O)N(C)[C@@H](C(C)C)C(=O)O[C@@H]2C)c(N)c1=O		LC-MS	children with cancer, plasma	dose not given, 24 h		median plasma concentration	1.8 µg/L
COCCCOc1ccnc(C[S+]([O-])c2nc3ccccc3[nH]2)c1C (stereo not drawn)			healthy humans			tolerability	not toxic
C=CC(=O)Nc1cc(Nc2nccc(Nc3cc(Cl)c(F)cc3C(C)(C)O)n2)c(OC)cc1N1CC[C@@H](N(C)C)C1			human patients, plasma	oral, 50 mg daily, cycle 2 day 1, geometric mean		AUCtau	1.27 µg·h/mL
Cc1nc2ccc(OCc3ccc(C(F)(F)F)cc3)cc2[nH]1			male Balb/c mice, lungs	oral, 10 mg/kg, 4 h	relative to: tissue over plasma	tissue/plasma ratio	3.3 ± 1.5
O=C(O)CCC(=O)O.[2H]C([2H])([2H])Oc1cc(C)c2[nH]ccc2c1CN1CC[C@@H](C2CC2)C[C@H]1c1ccc(C(=O)O)cc1			healthy Chinese subjects	100 mg, single ascending dose		TEAE decreased white cells	0%
COc1cc(Nc2ncc3c(n2)-c2ccc(Cl)cc2C(c2c(F)cccc2OC)=NC3)ccc1C(=O)O			cancer patients	oral, dose not given, all grades any attribution, together with: pembrolizumab		patients with nasal congestion	13%
O=C(COc1ccc(Cl)cc1)NC12CC(c3nnc([C@H]4C[C@@H](OC(F)(F)F)C4)o3)(C1)C2			human both sexes	oral, 200 mg single dose		postural dizziness participants	16.7%
Cc1nc(-c2cnc(NC(C)C)n(C)c2=O)ccc1Oc1ccnc(-c2cnn(C)c2)c1			Beagle dog, male, plasma	oral, 3 mg/kg, crossover study, mean		apparent volume of distribution	6.57 L/kg
NCC1CCN(c2nc(-c3ccncc3)nc3sc4c(c23)CCCC4)CC1		optical coherence tomography	Long-Evans rats	intravitreal, 3 µM, 5 h	relative to: vehicle	retinal structure	no effect
CN1C(C(=O)Nc2ccccn2)=C(O)c2sc(Cl)cc2S1(=O)=O	COS-7			30 µM, 24 h, 0.1% DMSO, unit not given	relative to: vehicle control	necrotic cells	0.56 ± 0.19
COc1c(O[C@@H]2O[C@H](CO)[C@@H](O)[C@H](O)[C@H]2O)c(C)cc2c1C(=O)c1c(O)cccc1C2=O	HepaRG co-cultured with HK-2	MTT		16.67 µM, 48 h	relative to: untreated control	cell viability	86.1 ± 4.66%
O=C(O)C[C@H](O)C[C@H](O)/C=C/c1c(C2CC2)nc2ccccc2c1-c1ccc(F)cc1	COS-7			10 µM, 24 h, 0.1% DMSO, unit not given	relative to: vehicle control	confluence	0.88 ± 0.04
O=C(Nc1nc2cccc(-c3ccc(CN4CCS(=O)(=O)CC4)cc3)n2n1)C1CC1			rheumatoid arthritis patients	oral, 100 mg twice daily, 4 weeks, TEAE regardless of relatedness		patients with increased blood amylase	0%
O=c1c(O)c(-c2ccc(O)cc2O)oc2cc(O)cc(O)c12			human plasma	mean, both sexes		plasma concentration	0.0927 µM
CCCCOC(=O)N1CCN(C(=O)[C@H](CP(=O)(O)O)NC(=O)c2cc(N3CC[C@H](OC)C3)nc(-c3ccccc3)n2)CC1			human	subcutaneous, 16 mg, 1 h post-dose	relative to: baseline	change in heart rate	-4.4 ± 5.7 beats/min
COc1ccc2c3c([nH]c2c1)[C@H](CC(C)C)N1C(=O)[C@H](CC(=O)NC(C)C)NC(=O)[C@@H]1C3			wild-type mouse, male, serum	oral, 100 mg/kg, 12 h		serum concentration	0.465 µM and 0.0289 µM and 1.03 µM and 0.0304 µM
CCOc1c([C@H](C)n2nc(C)c3c(N)ncnc32)cc(Cl)c(F)c1[C@@H]1CNC(=O)C1		ECG	previously treated B-cell malignancy patients	oral, 30 mg once daily, baseline below thresholds		observations with PR ≤200 ms	86.3%
O=c1oc2c(O)c(O)cc3c(=O)oc4c(O)c(O)cc1c4c23			human plasma	median, both sexes		plasma concentration	0.138 µM
CCCCOc1nc(N)c2c(n1)N(Cc1cccc(CN3CCCC3)c1)CC(=O)N2		item: decreased appetite	human	oral, 2 mg		drug-related TEAE incidence	0%
O=C(N[C@H](CO)[C@H](O)c1ccc([N+](=O)[O-])cc1)C(Cl)Cl		starch gel membrane permeability	Gram-negative envelope surrogate	200 µM, 10 min, pH 7.4		amount permeated	1.13 nmol
O=C(O)c1cc(O)c2c(c1)C(=O)c1cccc(O)c1C2=O	HepaRG co-cultured with HK-2	MTT		33.33 µM, 48 h	relative to: untreated control	cell viability	66.7 ± 10.1%
CNC(=O)c1ccc(-c2cnc3ncc(Cc4ccc5ncccc5c4)n3n2)cc1F		CTCAE v4.0, any causality	human cancer patients	oral, 600 mg twice daily, expansion, other tumours, RP2D		back pain incidence (all grades)	17%

For quick reference, copied from above:
Compound	tested on	test	test system	conditions	scale	quantity	result
C=CC(=O)Nc1cc(Nc2nccc(Nc3cc(Cl)c(F)cc3C(C)(C)O)n2)c(OC)cc1N1CC[C@@H](N(C)C)C1			human patients, plasma	oral, 50 mg daily, cycle 2 day 1, geometric mean		AUCtau	1.27 µg·h/mL
Cc1nc2ccc(OCc3ccc(C(F)(F)F)cc3)cc2[nH]1			male Balb/c mice, lungs	oral, 10 mg/kg, 4 h	relative to: tissue over plasma	tissue/plasma ratio	3.3 ± 1.5
